Results collected from several papers.
Every numbered part comes from another study and shows a few of its results, in no order. Substitutions count along the parent as printed.

Set 1 — method: RNA Bind-n-Seq; molecule type: RNA; matrix: in vitro; concentration: 365 nM; relative to: no-protein control; direction: higher = stronger binding; endpoint: RBNS enrichment (R)
Target: RNA binding protein fox-1 homolog 2, RRM domain, GST-SBP tag (RBFOX2, Homo sapiens, UniProt O43251-10, residues 100-194)
Setting: natural RNA segment, single round, ends assumed
All sequences stand within: GGGAGUUCUACAGUCCGACGAUC … UGGAAUUCUCGGGUGCCAA
Construct (chain): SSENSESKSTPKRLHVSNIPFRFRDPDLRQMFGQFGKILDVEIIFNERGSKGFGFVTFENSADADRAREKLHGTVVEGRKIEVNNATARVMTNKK
UGAACCUCUGAGGGCCAAAAUAGGACAUUUGGGAACAACUCCUUAACCCAUGAACUAGCUGUAACAUAGUUUGUGGAUCCAUGCACUGAUGCUGUGAAGCCUGCCCCUGU: 0.861
CUGUUAUUACCCCGUCUCCUCUGCCAUUUUCUACAGCUUGCUGAGUUGUCAUUCCUUUGCAACAUUAAAAUACAUGCUGAACUCAUAUUUUUCCUUCCUUCACUGUUGUA: 1.27
AGUGGGCCAACUACAAUCCUCAUCUCCUAAAGUCAUCUACAGAUGGCAGGUGGAAGAAAGUGGUUCUCCAUUCCACAUCCACUGCCAGUGUGCAUGGGGAGGGCAGGGGA: 4.54
AUGAAAAUCCCUAAUUAUAUAGUUUUAUAUAAUGUGUAUACAGAGUAGGAUUGUUGAUGAAAUUGAGCGGUUGGAACACCCUCAUGGAACACUGGCAACAUGGAAUGUAG: 0.78
UACCUUUCCCAGAUUAGGGGGAUGGUAUGUGGGGAGCAGAUAGCGGAAAUGCUUAGAAAGAUAAGGGGGACCACCCACAGCUGGUCGUGAGAACAGGGAGACAGUGUGUG: 1.41
CUUAACCUCCAAAGCCACAGAACUAGGGGCUCAGAGCCAGAGCUGGCAGCCGCCAGCCAAAAUGAUGCCAUUGCCUGAGCUGACAGCCAAGCCCUUCUGUGGGUCACCUU: 0.458
GUAGCUUUGCCAGAUAUGUACUUAGAGAUAUCAACCGUGUUAAUAAGCCCAUUAAUGUGUAACAACAAGUUUAACAGUUAAGAGAGAGUAGCUGUUCACCUUGAAGACAG: 0.493
CACUUGCCUCGUGAGACUUCAUAGAACAGUGGUUUACUGUCCCCCCCUUCUCACCUCCUCAUUCUCUCUGGCUCUUUCUGUCUUCCUCUUCUCACCCUCCUCCCUCCCCU: 1.1
AAAAAAUCCUCUAUUGUAUAUUUAUUCAACAACUGUUUAUGUUUCCAGGACAACUGCAAAGAAAACAAGCUGAGGUGGUUAUACUGUUGCUGUUAAAAGUUGGUAUCAGU: 0.338
CUUAGUUUGUGAUGAUUACAUUGCUUUUUGUUGUCCAGUAGUUUAGUUUGUGUACAUAUAUACACAUAUAUAUUUUGCACUACACAAACGAUAACAUUUUAAGGACUAAU: 0.38
CACAGUGAAGAGAAACUGAAUUGAAUUUAUGCGAGUUUUUCGUUUCUUGUACAUUUGACAACACAUUGAGGAAAACCCUAUAAACAUAAUCAAGAGGGGACAUUUUUCAU: 0.496
GAUAAUUGUCUAGUGACCCUCUCAUCACUGUAACCAUCGCGCCUGGCCUAGAUGUCGUGUUUUGGAUGCUGUGUUUUCAAUAAAUGCCUCUGGGGCCCUGCUUUUACCCG: 0.45

Set 2 — method: RNA Bind-n-Seq; molecule type: RNA; matrix: in vitro; concentration: not given; relative to: input RNA pool; direction: higher = stronger binding; endpoint: bound/input enrichment
Target: RING finger protein unkempt homolog, zinc fingers 1-6, GST-SBP tag (UNK, Homo sapiens, UniProt Q9C0B0, residues 30-357)
Setting: RNA with constant flanks, human and mouse sites, ends assumed
All sequences stand within: GGGAGUUCUACAGUCCGACGAUC … CAACAGAGGAUUGAGCAUCA
Target sequence (chain): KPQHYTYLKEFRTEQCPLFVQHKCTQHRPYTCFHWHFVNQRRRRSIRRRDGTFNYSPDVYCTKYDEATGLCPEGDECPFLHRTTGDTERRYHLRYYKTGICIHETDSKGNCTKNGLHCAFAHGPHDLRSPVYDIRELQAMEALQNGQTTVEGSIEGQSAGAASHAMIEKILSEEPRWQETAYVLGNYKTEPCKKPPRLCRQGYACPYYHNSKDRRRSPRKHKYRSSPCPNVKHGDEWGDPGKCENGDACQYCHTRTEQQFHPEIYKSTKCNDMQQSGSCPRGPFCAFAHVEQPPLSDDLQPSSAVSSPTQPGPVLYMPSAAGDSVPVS
CCUUGGCAGCCAUUUCUCCCAGCAGUUUUAAAGGAUGAACAUUGGAUUUCAUGCCAUCCCAUAGAAAACCUGUUUUAAAAUUUUAGGGAUCUUUACUUGGUCAUACAUGAAAAGUACACU: 1.83 ratio
CCCAAAACUAAUCUUCUGUACAAAGUUGUGUGCAUAUUGAGAUGAUUAGUUAAGGCAGUGUAGUUUUUUAAAUUUUUUCUGUAUAAAUUUCUUUCCUUCUUCCCCACCUCAGGCACCUAC: 22.3 ratio
ACCCAGGGCUGCUACUGCCGCUUGUGGCUUCAGGAUGAAAGGUGAGACCCCGGUGAACAGCACUAUGAGUAUUGGGCAAGCACGCAAGAUGGUGGAACAGCUUAAGAUUGAAGCCAGCUU: 0.0969 ratio
AGGGCAGUGGUAAAAAAUAAUCUUGCCCCACUUUUGAUGUGCAAGGAAUUGGUCACCAUUUAGUAUAUGUUUACUGGCUUCAUCACGGACCCUUAUGUCAACAGGUUCUUUCCAUUCCUA: 0.551 ratio
UCCUCACUUACUGGAAGUGGGAAGAGAAAUAGGAUAAGAAGUUCUCUGCCAUGGAGGCAAAAUAGUUGGAAAGGGUACAGUGAAAACAUGAGGAAGCUCAGAAAGACUCAUGAUAUUCCA: 0.472 ratio
AUCUUAUUACAGGGACUUGCUGUGCUUGCAAAGGAAAGACCACCAAAUCCCAUUGAAUUUCUAGCAUCUUAUCUUUUAAAAAACAAGGCACAGUUUGAAGAUCGAAACUGACUUAAUGGG: 2.65 ratio
AUCCCAAUUAUGGACACCGGUGAAAACCCAGAGGUGCCCUUCCCUCGGGACAUGAUCGACUUAGAGGCCAAUUUCGAGAAGAUUGAAAAUGAACUGAAGGAAAUCAACACUAACCAGGAA: 0.159 ratio
GACCCAGGAAGCAAAGACCCAGAAGAAGAUUACCCCAAGUUUGGACUUUUGGAUCAGGAUCUUAGUAAUAUUGGUCCUGCUUAUGACAACCAGAAACAAAGCAGUGCUGUGUCUGCUAGU: 0.257 ratio
CUCUACAAUGCUGCCAGUUUAUUUGGAUUCCCGUUCCAGCUGACCACAAAACCCAUGGUGUCUUCUGCUUGUAAUGGAACACGGAAUGUGGCCCCUUCUGGAGAGGUCUUUUCGAACUCU: 0.228 ratio
GAUGUCAGGACCAUUCUGCUCUCCAUCCAGAGCCUUCUAGGAGAACCCAACAUUGAUAGUCCCUUGAACACACAUGCUGCCGAGCUCUGGAAAAACCCCACAGCUUUUAAGAAGUACCUG: 0.223 ratio
GUUAGAAAAAGAAUUACAGCUUUGCAAUAUAACUAAUUGUUUCGCAUAAUUCUGAAUGUAAUAGAUAUGAAUAAUCAGCCUGUGUUUUUAAUGAACUUAUUUGUAUUUUCCCAAUCAUUU: 3.58 ratio

Set 3 — method: DHFR PCA, deep sequencing; matrix: yeast; added: (+)-ABA 0 µM; relative to: wild-type fitted maximum; direction: higher = stronger binding; endpoint: relative binding score
Target: ABI1, truncated, D143A, DHFR fusion (Arabidopsis thaliana)
Setting: methotrexate growth selection, single substitutions
Parent: PYL1, truncated, DHFR fusion (Arabidopsis thaliana); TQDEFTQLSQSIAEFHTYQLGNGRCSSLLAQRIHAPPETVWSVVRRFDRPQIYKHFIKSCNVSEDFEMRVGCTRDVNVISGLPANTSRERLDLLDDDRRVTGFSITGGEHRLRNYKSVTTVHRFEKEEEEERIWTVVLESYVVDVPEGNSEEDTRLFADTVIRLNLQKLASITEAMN
V44Y: 0.196%
P146M: 17.9%
V118T: 25%
N22V: 33.4%
E129Y: 10.2%
Q167K: 26.2%
L8W: 7.44%
S63L: 2.83%
Q167W: -2.75%
S87V: 59.1%
K54N: -3.88%
Y115H: 12.9%
E125L: 6.8%
R155F: -9.35%
V62N: -9.39%
R155A: -4.2%

Set 4 — target: CCNB1, cyclin fold, Cln2 fusion (human); method: yeast growth competition, sequencing; matrix: yeast; setting: strong parent motif; relative to: not given; direction: higher = stronger binding; endpoint: normalised enrichment score
Parent: E2F1 docking peptide (human); PPVKRRLDLETDH
R5Q: 0.621
P1Y: 2.29
P2V: 0.872
T11M: 1.31
D12Q: 1.94
H13R: 1.14
T11A: 1.29
K4G: 0.232
V3C: 0.611
R5N: 0.416
H13K: 1.05
H13A: 1.62
P2E: 1.03

Set 5 — method: universal PBM; molecule type: double-stranded DNA, one strand shown; matrix: in vitro; concentration: not given; direction: higher = stronger binding; endpoint: E-score
Target: Sal-like protein 4, full length isoform B (SALL4, Homo sapiens, UniProt Q9UJQ4-2, residues 1-616)
Setting: 8-mer, flanks averaged, mean of replicates
Target sequence (chain): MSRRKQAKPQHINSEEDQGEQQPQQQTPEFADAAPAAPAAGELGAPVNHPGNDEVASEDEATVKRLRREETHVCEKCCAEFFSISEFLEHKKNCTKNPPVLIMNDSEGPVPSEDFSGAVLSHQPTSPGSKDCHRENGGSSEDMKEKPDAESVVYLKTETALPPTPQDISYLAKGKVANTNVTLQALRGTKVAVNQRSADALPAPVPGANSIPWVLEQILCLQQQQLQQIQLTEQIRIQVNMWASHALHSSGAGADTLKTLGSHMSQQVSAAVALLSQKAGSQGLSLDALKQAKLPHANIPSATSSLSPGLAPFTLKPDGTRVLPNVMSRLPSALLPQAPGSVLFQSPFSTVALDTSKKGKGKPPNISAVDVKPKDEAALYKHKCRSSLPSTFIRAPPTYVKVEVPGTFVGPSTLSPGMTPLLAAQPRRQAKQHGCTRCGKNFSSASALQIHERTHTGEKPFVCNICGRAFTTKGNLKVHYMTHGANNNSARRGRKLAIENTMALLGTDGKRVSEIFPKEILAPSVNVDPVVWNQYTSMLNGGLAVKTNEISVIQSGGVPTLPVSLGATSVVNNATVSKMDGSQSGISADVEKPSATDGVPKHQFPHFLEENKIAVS
GAGGACAA: -0.0544
CCCACGCA: -0.0365
CTCCCCTA: -0.107
AGGCAGCC: -0.301
GCTACAGA: -0.11
CGTGGAAC: -0.07
AGCCGACC: -0.281
GCGGATCC: -0.252
CCCCATCG: -0.194
TGGTCGAA: -0.118
AGGCCAAC: -0.172
AACGGTCC: -0.222
AGATACCC: 0.153
ACAGTTGG: 0.00791
ACTTCGCG: -0.127
CCAGCGCG: -0.344
AAAGTGCG: -0.0815
CCCGGGCA: -0.253
ATAGGATC: 0.102
AACAACTA: 0.138
CAACTCGA: -0.0914
AGTTCTTC: -0.078
CAAAACAC: 0.0588
AGTATGCG: -0.0529
GTCGCCGA: -0.22

Set 6 — method: protein-binding microarray; molecule type: hairpin DNA; matrix: in vitro; concentration: not given; relative to: not given; direction: higher = stronger binding; endpoint: median fluorescence
Target: Runt-related transcription factor 3, Runt domain (RUNX3, Homo sapiens, UniProt Q13761, residues 53-186)
Chain of UniProt Q13761 (53-186, looked up): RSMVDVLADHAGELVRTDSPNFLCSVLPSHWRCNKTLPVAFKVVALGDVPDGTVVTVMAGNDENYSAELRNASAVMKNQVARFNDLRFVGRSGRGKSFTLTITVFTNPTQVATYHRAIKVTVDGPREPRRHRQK
Setting: whole hairpin DNA, median over replicate spots
GAGGCCCATCCGCAACAGCCTCCTGGCTGTTGCGGATGGGCCTCACACTC: 5030 a.u.
GAGGCCTGTTGTGCGTGGCCTCCTGGCCACGCACAACAGGCCTCACACTC (5mC at 14): 4670 a.u.
GAGGCCTGTTCGGGTTGGCCTCCTGGCCAACCCGAACAGGCCTCACACTC (5mC at 33): 4630 a.u.
GAGGCCTGTTGCGGTTGGCCTCCTGGCCAACCGCAACAGGCCTCACACTC: 8490 a.u.
GAGGCCTGTTGTGGCGGGCCTCCTGGCCCGCCACAACAGGCCTCACACTC (5mC at 15): 5240 a.u.
GAGGCCCGACCGCAACAGCCTCCTGGCTGTTGCGGTCGGGCCTCACACTC (5mC at 37): 7180 a.u.
GAGGCCTGTCGCGGTCGGCCTCCTGGCCGACCGCGACAGGCCTCACACTC: 5980 a.u.
GAGGCCTGTTGCGCGTGGCCTCCTGGCCACGCGCAACAGGCCTCACACTC: 5480 a.u.
CTCAGTTCGGTGGGCTGGACTCCTGTCCAGCCCACCGAACTGAGACACTC (5mC at 8 36): 4380 a.u.
GAGGCCCACCCGCAACAGCCTCCTGGCTGTTGCGGGTGGGCCTCACACTC: 5910 a.u.
GAGGCCTGTTGTGGTCGGCCTCCTGGCCGACCACAACAGGCCTCACACTC: 6440 a.u.
GAGGCCCAACCACAACAGCCTCCTGGCTGTTGTGGTTGGGCCTCACACTC: 5720 a.u.
GAGGCCTGTTTTGGTTGGCCTCCTGGCCAACCAAAACAGGCCTCACACTC: 4280 a.u.
CTCAGTTCTGTGGTCTGGACTCCTGTCCAGACCACAGAACTGAGACACTC: 4580 a.u.
